Experimental data of several laboratories.
Each numbered part is a random draw from the data of one study; scales do not carry over between parts.

Set 1
Target: Sal-like protein 4, full length isoform B (SALL4, Homo sapiens, UniProt Q9UJQ4-2, residues 1-616)
Technique: universal PBM
Molecule type: double-stranded DNA, one strand shown
Sample: in vitro
Concentration: not given
Setting: 8-mer, flanks averaged, mean of replicates
Direction: higher = stronger binding
Construct (chain): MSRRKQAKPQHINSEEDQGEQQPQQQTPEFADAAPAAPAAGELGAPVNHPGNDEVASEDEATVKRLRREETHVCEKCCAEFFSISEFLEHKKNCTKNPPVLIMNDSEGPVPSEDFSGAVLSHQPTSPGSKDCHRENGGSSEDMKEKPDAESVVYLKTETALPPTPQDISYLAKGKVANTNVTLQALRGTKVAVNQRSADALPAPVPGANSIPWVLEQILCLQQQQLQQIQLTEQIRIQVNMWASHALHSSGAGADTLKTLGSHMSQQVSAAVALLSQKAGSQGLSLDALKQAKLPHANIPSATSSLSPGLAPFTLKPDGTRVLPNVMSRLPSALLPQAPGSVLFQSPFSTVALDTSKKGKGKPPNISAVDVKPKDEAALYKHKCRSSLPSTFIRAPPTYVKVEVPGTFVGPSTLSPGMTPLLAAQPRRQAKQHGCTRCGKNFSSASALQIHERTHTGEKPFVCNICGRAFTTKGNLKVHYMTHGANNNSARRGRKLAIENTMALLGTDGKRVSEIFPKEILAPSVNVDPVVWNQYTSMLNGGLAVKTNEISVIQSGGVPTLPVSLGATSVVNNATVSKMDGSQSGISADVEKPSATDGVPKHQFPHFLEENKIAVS
With `TTCCACAA` the E-score was 0.135.
For `CGCCCTCC`, the E-score was -0.275.
For `GAGATTGA`, the E-score was 0.0791.
`CTACCGGA` gave an E-score of -0.268.
`CATTCGCC` has an E-score of -0.168.
`CTGCCCGC` gave an E-score of -0.293.
With `AACGTTCA` the E-score was -0.0359.
With `ATGGCGAG` the E-score was -0.0973.
`AGCCTACA` has an E-score of 0.0418.
The E-score of `GAGCCCGC` is reported as -0.374.
For `AAATAGTC`, the E-score was 0.106.
For `AAATTCGT`, the E-score was 0.244.
`CAGACACG` has an E-score of -0.223.
`GCTAATAA` has an E-score of 0.239.
`CTGGACAA` gave an E-score of -0.076.
`AGGGATGC` has an E-score of -0.154.
`AATTCACT` has an E-score of 0.201.
The E-score of `AATGGCTA` is reported as 0.139.
`GATTAGAA` gave an E-score of 0.111.
The E-score of `TCACAGCA` is reported as -0.0429.
`GGCACCCA` has an E-score of -0.295.
The E-score of `CAAAGGGA` is reported as 0.0301.
`ACCCCATA` gave an E-score of -0.129.
With `CCGATGAA` the E-score was -0.0007.
`ACCGGCGA` has an E-score of -0.33.

Set 2
Target: Prothrombin, mature alpha-thrombin (F2, Homo sapiens, UniProt P00734)
Technique: aptamer microarray, sandwich
Molecule type: DNA with 2'F-ANA
Sample: in vitro
Concentration: 200 nM
Setting: whole 15-mer aptamer, many near background
With: Cy3 exosite-II aptamer, 400 nM
Direction: higher = stronger binding
Sequence: GGTTGGTGTGGTTGG
`2'F-ANA at 1 2 5 6 7 8 9 10 11 14` — result for “mean fluorescence intensity”: 44.9 a.u.
For `2'F-ANA at 2 3 5 11 12 13 15`, “mean fluorescence intensity” read 121 a.u.
`2'F-ANA at 3 4 5 7 9 10 11 12 13`: “mean fluorescence intensity” 60.7 a.u.
`2'F-ANA at 1 8 9 10 12 13`: “mean fluorescence intensity” 65.7 a.u.
`2'F-ANA at 1 2 4 5 6 9 15`: “mean fluorescence intensity” 57.5 a.u.
For `2'F-ANA at 2 3 5 6 7 10 11 12 13`, “mean fluorescence intensity” read 53.5 a.u.
Under “mean fluorescence intensity”, `2'F-ANA at 2 4 9 11 14 15` is recorded as 82.5 a.u.
For `2'F-ANA at 3 4 6 8 14`, “mean fluorescence intensity” read 318 a.u.
For `2'F-ANA at 1 2 3 4 5 11 13 15`, “mean fluorescence intensity” read 52.4 a.u.
`2'F-ANA at 2 3 4 5 10`: “mean fluorescence intensity” 52.4 a.u.
`2'F-ANA at 1 3 6 7 8 10 12 14` — result for “mean fluorescence intensity”: 64.3 a.u.
For `2'F-ANA at 1 3 6 8 13 15`, “mean fluorescence intensity” read 240 a.u.
Under “mean fluorescence intensity”, `2'F-ANA at 1 6 7 9 14 15` is recorded as 58.4 a.u.
Under “mean fluorescence intensity”, `2'F-ANA at 1 2 3 4 7 8 9 10 12 13` is recorded as 66.8 a.u.
`2'F-ANA at 2 4 6 10 12 13 15`: “mean fluorescence intensity” 94.1 a.u.
`2'F-ANA at 5 9 12 13 14` — result for “mean fluorescence intensity”: 42.2 a.u.
`2'F-ANA at 2 3 4 5 7 9 10 11`: “mean fluorescence intensity” 53.3 a.u.
`2'F-ANA at 1 2 3 6 9 11 14` — result for “mean fluorescence intensity”: 60.8 a.u.
`2'F-ANA at 1 2 3 5 7 8 9 10 11 12 15`: “mean fluorescence intensity” 51.4 a.u.
`2'F-ANA at 1 3 5 8 11 12 13 14 15` — result for “mean fluorescence intensity”: 64.7 a.u.
For `2'F-ANA at 2 3 6 7 10 11 12 13 14`, “mean fluorescence intensity” read 242 a.u.
`2'F-ANA at 1 4 6 8 10 11 12`: “mean fluorescence intensity” 78.8 a.u.
`2'F-ANA at 2 6 7 9 10 11 13`: “mean fluorescence intensity” 113 a.u.
`2'F-ANA at 2 3 4 6 8 12 13 14`: “mean fluorescence intensity” 280 a.u.

Set 3
Target: RNA binding protein fox-1 homolog 2, RRM domain, GST-SBP tag (RBFOX2, Homo sapiens, UniProt O43251-10, residues 100-194)
Technique: RNA Bind-n-Seq
Molecule type: RNA
Sample: in vitro
Concentration: 365 nM
Setting: natural RNA segment, single round, ends assumed
Baseline: no-protein control
Direction: higher = stronger binding
All sequences stand within: GGGAGUUCUACAGUCCGACGAUC … UGGAAUUCUCGGGUGCCAA
Target sequence (chain): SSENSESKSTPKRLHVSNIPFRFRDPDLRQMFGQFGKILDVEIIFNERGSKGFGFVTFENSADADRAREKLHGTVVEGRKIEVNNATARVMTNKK
Under “RBNS enrichment (R)”, `UACUGCAGAUUAAGUAAAGAACUUAGAUGCUAAAUUACAUCUAAUUUUGUAUGUUUUUUUAAAUGUGUCUUUGAUGCAUACUUUAGAAGCACACUGGCUCGCGGUUUCCA` is recorded as 0.276.
`CUUUGUUAAUUAAAGGCAAUUUUAUUACCUGUCUAAUUAAGAAUAUAUUUCCAAGUUAGCAGUUAUGCAGCUCAAAAGCAGUAUUUGGCUUUAUAGUAAAUUUGUUUCUA`: “RBNS enrichment (R)” 0.344.
`ACAGAUAACAUAAAAGUUCUGUUACCCUCAUUCUAUACAACCUAUGGAUUUCAUGUGUUACAAUAUCAGUUUCCAGAAUAAAGUGAGGGAAAUCAGGUCUUUAUUGAUAA`: “RBNS enrichment (R)” 0.302.
For `CCAUAGGUCUGAAUCUCUUAAGAAUUCUCAGUCUCUCUGGGAUGUAGGGCGCAUUAUAAAUGCAUUAAUCCUUAUAGUCAAUCCUGUGCCUAGGAUUUUGCAAGGGAACA`, “RBNS enrichment (R)” read 0.306.
For `UCUUGGGCCGUAUCUGCUGUGUCACAGGACAAACACUAGGUCUUAUACAGCCCCCUUUUUUCCCCCUGAAUUUUAACAUGACAUUAAUUUAACUUCUAAUUCAGUAUGAU`, “RBNS enrichment (R)” read 0.446.
For `CUUCCCCAGCCUGCCCUCUGCCGCCCCGAACAGUCAGGUCUUUGGUCAUCGUUUUAACUGGGAACACUUGGUCACUACAAGGACAUGUCCUGGUUCCCUGGGACAGCAGG`, “RBNS enrichment (R)” read 0.567.
For `UACUAGGAGUGAGACCAGCUUCUGGCAACUGCCCCAGCUCCAGGCCAUCCCAUAGCCCCUCCUCUUCUGGCUGCCCCCAAUGCCCCGAGGCCUGGGGAGCCCCCAGCUCA`, “RBNS enrichment (R)” read 0.257.
`UCCUGGACAAGUGUGAUCCCCCUAUAAACGGCUCUCAGGAGGUUAGUGAGUAGGAGAUUCUGCCUUGUUCUGAUGAGCCUGUGCAGGGGCUCCAGGGGAGCAUGCUGUCC` — result for “RBNS enrichment (R)”: 0.942.
For `CUGAGGACACUGGUGGCUGUGCUAUGUGUGGCCAUCCUCCAUGUCCCGUCCCUGUAGCUGCUCUGUUUAGACAGCGGACAGACGCUCACGCCCAGGGGAUGUCCUCACGC`, “RBNS enrichment (R)” read 0.527.
For `GCCAUCAUCUCAUAAAAGGAAUUCAGAAGGUGCUGGUUUAGGUUUAGUGGGAAAACGACUUCUGUUUUGACAUGUAGAGUUUGAAGAUUAGGAGAUUGACAGAUGAUGUU`, “RBNS enrichment (R)” read 3.17.
For `AGGUGUUAAAGGCCCAGGUGUGCUGUGCCAAAGAGCUCAGCAGAGGCUCACGUGGCCCAGGCUGGUGCGCCCGCUGUCUCGGUAAGGGGCGGGUUGGUGUGUUUUCCCCU`, “RBNS enrichment (R)” read 0.251.
Under “RBNS enrichment (R)”, `GGACCCUUCUCAGCCUGUACCAAGUACUGCAGCUCAGUGUCAUGAGCAUCCUUUGGAGCAGGUCAACCUGAGGCUCCUUUGGCUUACAUCUAAGUUGUCCAGGUGCUCAG` is recorded as 0.318.

Set 4
Target: RING finger protein unkempt homolog, zinc fingers 1-6, GST-SBP tag (UNK, Homo sapiens, UniProt Q9C0B0, residues 30-357)
Technique: RNA Bind-n-Seq
Molecule type: RNA
Sample: in vitro
Concentration: not given
Setting: RNA with constant flanks, human and mouse sites, ends assumed
Baseline: input RNA pool
Direction: higher = stronger binding
All sequences stand within: GGGAGUUCUACAGUCCGACGAUC … CAACAGAGGAUUGAGCAUCA
Target sequence (chain): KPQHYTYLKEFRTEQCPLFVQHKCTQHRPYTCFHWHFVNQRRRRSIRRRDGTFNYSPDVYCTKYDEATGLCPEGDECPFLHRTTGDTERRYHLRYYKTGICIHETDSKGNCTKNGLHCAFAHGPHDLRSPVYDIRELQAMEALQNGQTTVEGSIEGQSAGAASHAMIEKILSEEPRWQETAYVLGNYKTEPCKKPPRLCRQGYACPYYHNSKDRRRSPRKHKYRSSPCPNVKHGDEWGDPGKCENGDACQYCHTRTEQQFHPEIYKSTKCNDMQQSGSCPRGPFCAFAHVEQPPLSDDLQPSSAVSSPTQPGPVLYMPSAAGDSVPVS
`GACCUGAAGAAGCUCCGAGUUAAAGAGCUGAAGAAGAUUCUGGAUGACUGGGGGGAGACAUGCAAAGGCUGUGCAGAAAAGUCUGACUACAUCCGGAAGAUAAAUGAACUGAUGCCUAAA` has a bound/input enrichment of 0.214 ratio.
For `GAGCCACCAUACAGAGUACCUAGGGAUGAUUGGGAAGAAAAAAGGCACUUUAGAAGAGAUAGUUUUGAUGAUCGUGGUCCUAGUCUCAACCCAGUGCUUGAUUAUGACCAUGGAAGUCGU`, the bound/input enrichment was 1.91 ratio.
For `CGAGGGCUCCAGGCACUCGGCCAGACCUUCGGGGCAAACCCAGCAUUUGCCAGCUCCCUUCGAUACCUGGACCUGAGCAAGAAUCCUGGGCUCCUCGCCACGGAUGAGGCCAAUGCCCUC`, the bound/input enrichment was 0.0657 ratio.
`UUGCCUGAAAAUGAAGAUGAAUUGGAGAGCACCAAUAGACGCUAUACCAAGAGAGACUGUAGCACUUUUCUCAGAACUAGCGAGACGGGCAUUGUGGAUCAGGUUAUGGUAACUCUCAAU` gave a bound/input enrichment of 0.766 ratio.
The bound/input enrichment of `AAGAGGAAGCUGAUUGUUGACAGUGUCAAAGAAUUGGAUAGUAAGACCAUUAGAGCCCAGCUUAGCGAUUAUUCUGAUAUUGUUACGACUCUGGACCUGGCUCCGCCAACCAAGAAGCUU` is reported as 1.12 ratio.
The bound/input enrichment of `AUGGAGCCCAGAGCUCCGUGCCUGAUGGGUGAGCACUCAACAACUGAGGCACAUCCCUAGCCACUCCUGAGUGCUGUCCCUCUGCCAGGCUGAGAGCUGGGAGGUGGCGCCUAAGGGGAU` is reported as 0.0555 ratio.
The bound/input enrichment of `GGCACCCAAGUGGAUGAGGGUGUCCGCUCAGCUAGCAAACGCAUUGUGGCACCCCCUGGAGGCCGUUCUAACAUCACAUCCCUGAGUUAAGCCCUCCCAAAGAGGGAGGCAGAAGCAAGA` is reported as 0.312 ratio.
The bound/input enrichment of `UCUAAGGAAGCACAGAUAAGAGAAACUGAAACGUUUUCAGAUUCAUCUCCAAUUGAAAUUAUAGAUGAGUUCCCUACAUUGAUCAGUUCUAAAACUGAUUCAUUUUCUAAAUUAGCCAGG` is reported as 0.795 ratio.
The bound/input enrichment of `GGUGGAGAUGGAGAUGAUAUGGAAAUGUUCAUGGAGGAGAUGAGAGAGAUCCGGAGAAAGCUUAGGGAGCUACAGCUGAGAAAUUGUCUACGCAUCCUUAUGGGGGAGCUGUCUAACCAC` is reported as 0.326 ratio.
`AAAGAUCCUAAUAUGAAAGGUGCAAUGCUUACCAACACUGGAAAAUAUGCAAUACCAACUAUAGAUGCAGAAGCAUAUGCAAUUGGGAAGAAAGAGAAACCUCCCUUCUUACCAGAGGAG` gave a bound/input enrichment of 0.264 ratio.
The bound/input enrichment of `UAGUGAAAUUCUCUAGCACUGUAUUUAGAUUCUGGAUUUUUAUAAUUCAUGCUUAAUGUAUUAGACAUUUUUAGCCCAUAAUUAAAACAUUGUUGCUUUUACACAGGUGUAGUUUGGUGC` is reported as 39.2 ratio.

For quick reference, copied from above (set 1):
`CTGCCCGC` gave an E-score of -0.293.
With `AACGTTCA` the E-score was -0.0359.
With `ATGGCGAG` the E-score was -0.0973.
`AGCCTACA` has an E-score of 0.0418.
